{"data": "Experimental data collected from several papers", "note": "Every numbered part comes from another study and shows a few of its results, in no order."}
{"data": "Study 1", "target": "Myc proto-oncogene protein, bHLH-zipper, MAX partner unstated (MYC, Homo sapiens, UniProt P01106, residues 368-449)", "method": "protein-binding microarray", "molecule type": "double-stranded DNA, one strand shown", "matrix": "in vitro", "concentration": "not given", "notes": "k-mer, scored over probes, only values ≥0.25", "reading": "higher = stronger binding", "UniProt P01106, sequence (368-449, looked up)": "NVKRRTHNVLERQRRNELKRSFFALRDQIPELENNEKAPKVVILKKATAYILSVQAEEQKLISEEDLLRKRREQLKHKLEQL"}
{"Sequence": "GTGGGTGA", "E-score": 0.263}
{"Sequence": "TCACGTGA", "E-score": 0.436}
{"Sequence": "GGCCATGA", "E-score": 0.346}
{"Sequence": "CGCGGTGC", "E-score": 0.274}
{"Sequence": "CGTTCTCC", "E-score": 0.265}
{"Sequence": "CATGCGGA", "E-score": 0.431}
{"Sequence": "ATGCATGG", "E-score": 0.404}
{"Sequence": "ATGGTGTG", "E-score": 0.337}
{"Sequence": "CGACCACG", "E-score": 0.418}
{"Sequence": "GCCACACC", "E-score": 0.364}
{"Sequence": "CGGGACAC", "E-score": 0.297}
{"Sequence": "CGCGCGCG", "E-score": 0.321}
{"Sequence": "CATGTGTC", "E-score": 0.463}
{"Sequence": "GTGCGTGA", "E-score": 0.272}
{"Sequence": "ATCACGCG", "E-score": 0.417}
{"Sequence": "ATGTGGGC", "E-score": 0.351}
{"Sequence": "AACCCACG", "E-score": 0.391}
{"data": "Study 2", "target": "Interferon regulatory factor 7, full length, phosphomimetic (IRF7, Homo sapiens, UniProt Q92985, residues 1-503, S471D/S472D/S475D/S476D/S477D/S483D/S484D/S487D)", "method": "protein-binding microarray", "molecule type": "double-stranded DNA, one strand shown", "matrix": "in vitro", "concentration": "2200 nM top", "notes": "60-bp whole probe", "added": "salmon DNA 0.4 mg/ml", "baseline": "random background probes", "reading": "higher = stronger binding", "all sequences stand within": "GCCTAGCAC … GTCTTGATTCGCTTGACGCTGCTG", "UniProt Q92985, sequence (whole entry, unmodified, looked up)": "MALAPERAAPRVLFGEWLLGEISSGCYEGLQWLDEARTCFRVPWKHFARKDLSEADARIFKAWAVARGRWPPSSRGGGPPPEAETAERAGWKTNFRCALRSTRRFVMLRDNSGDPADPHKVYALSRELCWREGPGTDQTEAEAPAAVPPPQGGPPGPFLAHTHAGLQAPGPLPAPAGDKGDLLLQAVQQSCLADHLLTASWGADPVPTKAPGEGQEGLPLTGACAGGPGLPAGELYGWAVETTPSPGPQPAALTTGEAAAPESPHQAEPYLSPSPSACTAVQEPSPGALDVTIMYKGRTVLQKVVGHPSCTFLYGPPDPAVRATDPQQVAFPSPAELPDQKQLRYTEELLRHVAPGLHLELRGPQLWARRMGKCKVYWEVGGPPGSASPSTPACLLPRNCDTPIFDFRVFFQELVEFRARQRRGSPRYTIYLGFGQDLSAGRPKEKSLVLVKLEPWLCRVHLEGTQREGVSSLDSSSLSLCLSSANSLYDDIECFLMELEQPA"}
{"Sequence": "TTAGGTATCCTTATCCGTTAGTGCTAG", "fitted relative affinity": "0.809 z-score"}
{"Sequence": "GACGGTTTCGGGTTTTGGGACGTGCTA", "fitted relative affinity": "7.71 z-score"}
{"Sequence": "ATAGATATCGGGACTGGATTAGTGCTA", "fitted relative affinity": "-0.122 z-score"}
{"Sequence": "GACGGTTTCCTACTGTTGACGTGCTAG", "fitted relative affinity": "1.99 z-score"}
{"Sequence": "TCAAATTTTTTTCTAAGACTGTGCTAG", "fitted relative affinity": "-0.366 z-score"}
{"Sequence": "GACGGTCTCCTTCTTCTGACGTGCTAG", "fitted relative affinity": "1.27 z-score"}
{"Sequence": "GACGTTTTCGGTTTCGGGACGTGCTAG", "fitted relative affinity": "13.9 z-score"}
{"Sequence": "TTCGGTCTCGGTCTCGGTTAGTGCTAG", "fitted relative affinity": "1.56 z-score"}
{"Sequence": "TCACTTTTTGCTTTCTTACTGTGCTAG", "fitted relative affinity": "4.23 z-score"}
{"Sequence": "TTAGGTTTCCGGACTGGGTTAGTGCTA", "fitted relative affinity": "0.535 z-score"}
{"Sequence": "TTAGGTCTGGACACTGGGTTAGTGCTA", "fitted relative affinity": "-0.394 z-score"}
{"Sequence": "GACGTTATCGGGACTGGGGACGTGCTA", "fitted relative affinity": "-0.37 z-score"}
{"Sequence": "GACGGTATCGGAATGGGGACGTGCTAG", "fitted relative affinity": "0.159 z-score"}
{"Sequence": "TTAGATACCGGGACTGGATTAGTGCTA", "fitted relative affinity": "-0.463 z-score"}
{"Sequence": "ACTCCTGTACATCTATGTAGGTGCTAG", "fitted relative affinity": "1.55 z-score"}
{"Sequence": "GACGATTTAGGGTTTCGAGACGTGCTA", "fitted relative affinity": "1.29 z-score"}
{"Sequence": "TCTTTTTCCTAATTGAACCCGTGCTAG", "fitted relative affinity": "2.14 z-score"}
{"Sequence": "TGAGAACTGAGACTGGATTAGTGCTAG", "fitted relative affinity": "-0.56 z-score"}
{"Sequence": "GACGCTCTCGGTATCGGGACGTGCTAG", "fitted relative affinity": "0.62 z-score"}
{"data": "Study 3", "target": "Centromere-binding protein 1, full length, N-terminal tag (CBF1, Saccharomyces cerevisiae, UniProt P17106, residues 1-351)", "method": "protein-binding microarray", "molecule type": "double-stranded DNA, one strand shown", "matrix": "in vitro", "concentration": "0.8 µM", "notes": "whole 60-bp probe, no competitor", "reading": "higher = stronger binding", "all sequences stand within": "… GTCTTGATTCGCTTGACGCTGCTG", "UniProt P17106, sequence (whole entry, looked up)": "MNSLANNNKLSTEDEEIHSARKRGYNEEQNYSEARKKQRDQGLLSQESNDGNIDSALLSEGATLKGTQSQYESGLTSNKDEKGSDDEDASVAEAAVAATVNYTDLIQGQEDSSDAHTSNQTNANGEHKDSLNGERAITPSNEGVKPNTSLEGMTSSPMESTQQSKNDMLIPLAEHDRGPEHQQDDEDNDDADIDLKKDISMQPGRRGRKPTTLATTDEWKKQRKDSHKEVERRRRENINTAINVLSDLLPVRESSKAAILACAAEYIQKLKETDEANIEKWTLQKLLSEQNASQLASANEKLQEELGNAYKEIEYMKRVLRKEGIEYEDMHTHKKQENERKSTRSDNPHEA"}
{"Sequence": "GAAGGTACCAGCGGTGACGTTCGGTAGACTCTATAG", "fluorescence intensity [a.u.]": 491}
{"Sequence": "GAATATTGTCATACTGACGTGTACCACTCTGAGTAG", "fluorescence intensity [a.u.]": 541}
{"Sequence": "GAACTAATCCAGCATTCCGTGATCATAGTTTAATAG", "fluorescence intensity [a.u.]": 621}
{"Sequence": "GAACACCGCTTCCATTATCAGGTGCCTCTGCTCTAG", "fluorescence intensity [a.u.]": 757}
{"Sequence": "CTATTTTCGAGACATCAGGTAAAAAGGATAGTTTTC", "fluorescence intensity [a.u.]": 519}
{"Sequence": "CTAATCTCGCTATGACGCACGCCAGTCAATATTTTC", "fluorescence intensity [a.u.]": 532}
{"Sequence": "GAAGTTAAAATCTTGTACGTGCGTGAGATGATGTAG", "fluorescence intensity [a.u.]": 584}
{"Sequence": "CTATTTCAGTAAACTGTGATCACGAGTCTGCAATTC", "fluorescence intensity [a.u.]": 5380}
{"Sequence": "CCTAACTACTATAATAGCATCAGATAGCTTCGTACA", "fluorescence intensity [a.u.]": 485}
{"Sequence": "GAAGCCGAGAAGTTACTCGTGCAATTCACTACGTAG", "fluorescence intensity [a.u.]": 562}
{"Sequence": "GAACTGAATCTCAAGCGCACGCAGTATACCAAATAG", "fluorescence intensity [a.u.]": 532}
{"Sequence": "CTATTCCGTAATCGTGGTGCTCAACTTTTGAAATTC", "fluorescence intensity [a.u.]": 507}
{"Sequence": "CTATTTTTTAGTGCTGATGTAAGCTTAACAAGATTC", "fluorescence intensity [a.u.]": 534}
{"Sequence": "CTATATTTTAATCAACACCTGATATTTTCTTGATTC", "fluorescence intensity [a.u.]": 881}
{"Sequence": "GAATTATGGTCCCACCACGCGTACTGTAAACAATAG", "fluorescence intensity [a.u.]": 535}
{"Sequence": "CTAGCTCTTGCTTTCGAGGTGACATAGCATTTTTTC", "fluorescence intensity [a.u.]": 525}
{"Sequence": "GAATGGTCTGTTCTTAACGTGAAATGCTTTCCGTAG", "fluorescence intensity [a.u.]": 501}
{"Sequence": "CTATTGAAAAATAGTCACGTGCTTAACCATTTTTTC", "fluorescence intensity [a.u.]": 25400}
{"data": "Study 4", "target": "Histone acetyltransferase KAT6A, winged helix 1, GST fusion (KAT6A, Homo sapiens, UniProt Q92794, residues 1-85)", "method": "protein binding microarray", "molecule type": "double-stranded DNA, one strand shown", "matrix": "in vitro", "concentration": "not given", "notes": "8-mer, flanks averaged, mean of 2 arrays, mostly near background", "baseline": "not given", "reading": "higher = stronger binding", "Construct (chain)": "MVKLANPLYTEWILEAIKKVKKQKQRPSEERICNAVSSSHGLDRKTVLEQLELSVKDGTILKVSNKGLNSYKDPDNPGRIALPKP"}
{"Sequence": "ATAGATTG", "E-score": -0.129}
{"Sequence": "TCAGACGA", "E-score": -0.204}
{"Sequence": "GGGTCGAC", "E-score": 0.0835}
{"Sequence": "CCCCCAGC", "E-score": 0.0544}
{"Sequence": "CTTGATCA", "E-score": -0.0739}
{"Sequence": "CCATCCCA", "E-score": -0.26}
{"Sequence": "TCTGGACA", "E-score": -0.145}
{"Sequence": "AGAAGATA", "E-score": 0.0452}
{"Sequence": "AAACAAGG", "E-score": -0.133}
{"Sequence": "ATGTATTC", "E-score": -0.0168}
{"Sequence": "ACGTAGCC", "E-score": 0.0649}
{"Sequence": "ATTTGAGA", "E-score": 0.0165}
{"Sequence": "AAGTATGT", "E-score": -0.208}
{"Sequence": "GCTACTAA", "E-score": 0.0889}
{"Sequence": "GAGGAAGC", "E-score": -0.0134}
{"Sequence": "ATAACCAC", "E-score": -0.212}
{"Sequence": "AGCAACCC", "E-score": 0.051}
{"Sequence": "TCCCTTAA", "E-score": -0.0602}
{"Sequence": "CTGAGGCC", "E-score": 0.121}
{"Sequence": "CAACCATA", "E-score": -0.167}
{"Sequence": "ATTTATAG", "E-score": -0.192}
{"Sequence": "ATCTCTAA", "E-score": -0.0882}
{"Sequence": "CCAGCCTA", "E-score": -0.236}
{"Sequence": "CCTCCTTC", "E-score": -0.0755}
{"Sequence": "CTAGAAGC", "E-score": 0.0991}
{"data": "Study 5", "target": "RNA binding protein fox-1 homolog 2, RRM domain, GST-SBP tag (RBFOX2, Homo sapiens, UniProt O43251-10, residues 100-194)", "method": "RNA Bind-n-Seq", "molecule type": "RNA", "matrix": "in vitro", "concentration": "365 nM", "notes": "natural RNA segment, single round, ends assumed", "baseline": "no-protein control", "reading": "higher = stronger binding", "all sequences stand within": "GGGAGUUCUACAGUCCGACGAUC … UGGAAUUCUCGGGUGCCAA", "Residues (chain)": "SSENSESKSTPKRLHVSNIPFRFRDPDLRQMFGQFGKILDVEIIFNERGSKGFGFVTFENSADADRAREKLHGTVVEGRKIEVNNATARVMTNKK"}
{"Sequence": "GGCUGUUCUCAUCUGGGGCUGUCUCUUGAUUAAGGCUGUCACCUGUUUGUAUAGGGACCAUGUUUCCCAACGCACUUUGAGUGCAGUUUAGGAGGUAUCCUUUGGAUGCU", "RBNS enrichment (R)": 0.369}
{"Sequence": "AACCCACUCACUGGCUUUGACCUUCAACUGCCAGUCUGGGCAAAUACCAGUGAGCUCUGUUGUACCAAGACCAGGUCUUCAGAGCAUCUGAACCACUGUGGCCUUCUCUU", "RBNS enrichment (R)": 0.176}
{"Sequence": "GUACUUAAUAUAAAAAUCAAUGUCUUUAGAUAAAUACUUUCAUAGUUCUAAUUUGGGUUAAUAUUUUUAAAUGUAUUGUUUACUUUUGUAAUUAUAUACACAACAAAUAU", "RBNS enrichment (R)": 0.553}
{"Sequence": "GGGGAGGGACAAGGGAUUCUGGGAAGCUUGAGCCUCCCCCAAAGCAAUGUGAGUCCCAGAGCCCGCUUUUGUUCUUCCCCACAAUUCCAUUACUAAGAAACACAUCAAAU", "RBNS enrichment (R)": 0.478}
{"Sequence": "AUUUCCUCACUCAGUGGAGAUUUGCCAAAUGAAUAAACGACACCUUUGAGGCCCCAGGUGAAGCGGGGCCCUACUCCGGCCUCUGCCUUGGGCCUCGCCUCUGUCCUCAG", "RBNS enrichment (R)": 0.119}
{"Sequence": "UGGACCUGGGGAGUGGAUAUCAGAUGGGAUAUCUCCUUCCAUUCCCCGGUCCAGGGGAGAGUCACUAGUUGUACCCUACUCCAUUAGGUCCCAAAUGGGGGCCCCAUUUC", "RBNS enrichment (R)": 0.346}
{"Sequence": "UAGCCGAGGCCAGCCGUGUUGGGAAGAGAGCCAUGCCAAGGGUCCAGGCUGCUGUAGUCCACCUGUGCCCUACUCAUUUGGGGACAGGUGGUUUUUCUUGUAAACUUGUG", "RBNS enrichment (R)": 0.485}
{"Sequence": "UUUUUCAUAGUGAAAUUGUGUUUCAGGCUUAGUCUGACCUUUCUGGUUUCUUCAUUUUCUUCCAUUACUUAGGAAAGAGUGGAAACUCCACUAAAAUUUCUCUGUGUUGU", "RBNS enrichment (R)": 0.297}
{"note": "A few entries again (study 3):"}
{"Sequence": "GAATGGTCTGTTCTTAACGTGAAATGCTTTCCGTAG", "fluorescence intensity [a.u.]": 501}
{"Sequence": "CTAGCTCTTGCTTTCGAGGTGACATAGCATTTTTTC", "fluorescence intensity [a.u.]": 525}
{"Sequence": "CCTAACTACTATAATAGCATCAGATAGCTTCGTACA", "fluorescence intensity [a.u.]": 485}
{"Sequence": "GAACTAATCCAGCATTCCGTGATCATAGTTTAATAG", "fluorescence intensity [a.u.]": 621}
{"Sequence": "GAAGGTACCAGCGGTGACGTTCGGTAGACTCTATAG", "fluorescence intensity [a.u.]": 491}
